Measurements of several laboratories.
Target: Death-associated protein kinase 2 (DAPK2, Homo sapiens, UniProt Q9UIK4)
Chain of UniProt Q9UIK4 (whole entry, looked up): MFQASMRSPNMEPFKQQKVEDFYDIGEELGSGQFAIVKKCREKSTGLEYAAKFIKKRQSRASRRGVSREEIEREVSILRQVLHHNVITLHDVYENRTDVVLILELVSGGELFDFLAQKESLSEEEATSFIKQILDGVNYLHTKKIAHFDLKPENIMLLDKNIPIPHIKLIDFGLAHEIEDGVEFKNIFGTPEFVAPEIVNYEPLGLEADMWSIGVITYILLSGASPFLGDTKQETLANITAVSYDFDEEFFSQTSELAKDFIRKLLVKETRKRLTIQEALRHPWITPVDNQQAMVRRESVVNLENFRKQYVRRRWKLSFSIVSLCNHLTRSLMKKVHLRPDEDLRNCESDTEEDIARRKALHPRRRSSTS

Cc1cnc2nc1Nc1cccc(c1)COC/C=C/COCc1cc(ccc1OCCN1CCOCC1)N2 — remaining binding (binding; 0.1 µM): 91%
NC(=O)C[C@H]1CCc2sc3ncnc(O[C@H]4CC[C@H](N5CCOCC5)CC4)c3c21 — inhibition (enzyme activity, inhibitor; 10 µM): -3%
CN1CC[C@@H](COc2cnc(C#N)cc2-c2ccn3nc(NC(=O)C4CC4)cc3c2)C1 — inhibition (enzyme activity, inhibitor; 1 µM): 1%
CCn1cc(C(=O)O)c(=O)c2c(N)c(F)c(NC3CCCCC3)cc21 — inhibition (kinase activity; 0.1 µM, together with: ATP at Km): 11%
COc1cc(Nc2nccc(-c3cnn4nc(OC)ccc34)n2)cc(C(F)(F)F)c1 — remaining binding (binding, competition with immobilised ligand; 1 µM): 92%
Nc1ncc2c(n1)-c1c([nH]c3ccc(C4=CCOCC4)cc13)CCC2 — remaining binding (binding, competition with immobilised ligand; 1 µM): 100%
COc1ccc(NC(=O)Nc2ccc3c(c2)C(=O)N(C(C)CO)CC(C)C(CN(C)Cc2ccc4c(c2)OCO4)O3)cc1 (stereo not shown) — remaining activity (kinase activity, KinaseProfiler; 0.03 µM, species human; baseline: control): 95%
O=C(Cc1ccc(OCc2ccccc2)cc1)NC1(C(=O)O)CCN(C(=O)c2ccc(-c3cccc(Cl)c3)cc2)CC1 — activity vs control (enzyme activity, inhibitor; 10 µM): 106%
Cc1nc2c(F)cc(-c3nc(Nc4ccc(CNC(=O)CCCCCCC(=O)NO)cc4)ncc3F)cc2n1C(C)C — inhibition (enzyme activity, inhibitor; 1 µM): 46%
CNC(=O)C1CCN(c2cc(C)c(F)cc2NC(=O)c2ccc(-c3cc(O)ccc3C)c(C)c2)CC1 — remaining binding (binding, competition with immobilised ligand; 1 µM): 97%
O=C=[N][Ru-4]123([n]4c5ccc(O)cc5c5c6c(c7cc(F)c[n+]1c7c54)C(=O)NC6=O)[S+]1CC[S+]2CC[S+]3CC1 (stereo not shown) — remaining activity (enzyme activity; 100 nM, human enzyme, together with: 10 µM ATP; baseline: untreated): 8%
C=CC(=O)N1CCc2ccc(-n3c(=O)ccc4cnc5ccc(-c6cnn(C)c6)cc5c43)cc21 — remaining binding (KINOMEscan; 1 µM; baseline: DMSO control): 100%
CC(C)=CC1OC(C)(C)C2C=C3C(=O)C(Cl)=CC(O)C3C3C(O)C4OC4C(=O)C132 (stereo not shown) — remaining binding (cell-free assay, competition with immobilised ligand; 10 µM): 68%

For quick reference, copied from above:
O=C(Cc1ccc(OCc2ccccc2)cc1)NC1(C(=O)O)CCN(C(=O)c2ccc(-c3cccc(Cl)c3)cc2)CC1 — activity vs control (enzyme activity, inhibitor; 10 µM): 106%
